Results gathered from unrelated publications.
Protocols differ between the studies behind these lines.
MTNR1A: Melatonin receptor type 1A (MTNR1A, Homo sapiens, UniProt P48039)
Sequence of UniProt P48039 (whole entry, looked up): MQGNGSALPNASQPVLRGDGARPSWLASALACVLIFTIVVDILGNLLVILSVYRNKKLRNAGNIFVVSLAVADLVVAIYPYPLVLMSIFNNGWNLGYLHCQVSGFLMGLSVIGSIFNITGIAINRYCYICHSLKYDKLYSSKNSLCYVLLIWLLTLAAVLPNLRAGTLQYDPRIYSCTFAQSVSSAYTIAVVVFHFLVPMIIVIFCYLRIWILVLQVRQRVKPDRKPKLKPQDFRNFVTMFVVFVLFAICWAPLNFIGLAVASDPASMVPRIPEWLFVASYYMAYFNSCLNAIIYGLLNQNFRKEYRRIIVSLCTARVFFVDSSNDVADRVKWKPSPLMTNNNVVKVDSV
Sequence of UniProt Q13188 (whole entry, looked up): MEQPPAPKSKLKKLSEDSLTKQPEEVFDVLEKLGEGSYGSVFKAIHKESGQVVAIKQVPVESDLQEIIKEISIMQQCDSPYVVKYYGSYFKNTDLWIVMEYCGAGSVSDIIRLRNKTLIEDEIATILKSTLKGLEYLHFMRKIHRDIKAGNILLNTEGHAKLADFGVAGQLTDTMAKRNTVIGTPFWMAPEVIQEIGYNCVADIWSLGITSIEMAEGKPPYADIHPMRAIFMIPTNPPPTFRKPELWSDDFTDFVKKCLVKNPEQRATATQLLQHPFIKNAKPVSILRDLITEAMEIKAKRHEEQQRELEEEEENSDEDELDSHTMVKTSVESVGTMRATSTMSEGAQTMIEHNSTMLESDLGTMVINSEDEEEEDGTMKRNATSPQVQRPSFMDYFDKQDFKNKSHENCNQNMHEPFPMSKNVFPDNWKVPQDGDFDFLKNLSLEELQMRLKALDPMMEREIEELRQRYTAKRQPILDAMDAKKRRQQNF
Sequence of UniProt Q16832 (whole entry, looked up): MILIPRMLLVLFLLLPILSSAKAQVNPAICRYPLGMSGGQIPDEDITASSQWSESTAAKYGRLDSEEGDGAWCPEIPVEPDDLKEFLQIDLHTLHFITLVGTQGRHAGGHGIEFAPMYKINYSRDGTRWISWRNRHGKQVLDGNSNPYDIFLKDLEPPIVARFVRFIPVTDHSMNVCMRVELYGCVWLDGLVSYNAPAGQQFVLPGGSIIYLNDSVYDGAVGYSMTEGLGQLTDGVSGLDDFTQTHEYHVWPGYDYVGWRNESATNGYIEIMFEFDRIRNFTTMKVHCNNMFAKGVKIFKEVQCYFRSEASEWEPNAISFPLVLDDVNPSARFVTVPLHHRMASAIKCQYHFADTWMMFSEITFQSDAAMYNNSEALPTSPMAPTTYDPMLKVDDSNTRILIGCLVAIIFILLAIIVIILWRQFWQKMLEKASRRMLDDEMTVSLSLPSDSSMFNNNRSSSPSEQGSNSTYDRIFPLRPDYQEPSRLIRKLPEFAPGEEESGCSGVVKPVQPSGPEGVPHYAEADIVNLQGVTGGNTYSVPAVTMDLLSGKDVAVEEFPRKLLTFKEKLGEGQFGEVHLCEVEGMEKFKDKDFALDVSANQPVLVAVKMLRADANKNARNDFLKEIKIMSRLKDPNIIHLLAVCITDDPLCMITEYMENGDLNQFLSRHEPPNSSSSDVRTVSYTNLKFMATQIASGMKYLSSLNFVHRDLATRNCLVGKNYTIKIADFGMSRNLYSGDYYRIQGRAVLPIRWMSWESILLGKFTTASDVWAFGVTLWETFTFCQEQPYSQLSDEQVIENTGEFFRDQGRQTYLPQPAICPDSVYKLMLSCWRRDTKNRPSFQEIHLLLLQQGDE
Sequence of UniProt O60674 (whole entry, looked up): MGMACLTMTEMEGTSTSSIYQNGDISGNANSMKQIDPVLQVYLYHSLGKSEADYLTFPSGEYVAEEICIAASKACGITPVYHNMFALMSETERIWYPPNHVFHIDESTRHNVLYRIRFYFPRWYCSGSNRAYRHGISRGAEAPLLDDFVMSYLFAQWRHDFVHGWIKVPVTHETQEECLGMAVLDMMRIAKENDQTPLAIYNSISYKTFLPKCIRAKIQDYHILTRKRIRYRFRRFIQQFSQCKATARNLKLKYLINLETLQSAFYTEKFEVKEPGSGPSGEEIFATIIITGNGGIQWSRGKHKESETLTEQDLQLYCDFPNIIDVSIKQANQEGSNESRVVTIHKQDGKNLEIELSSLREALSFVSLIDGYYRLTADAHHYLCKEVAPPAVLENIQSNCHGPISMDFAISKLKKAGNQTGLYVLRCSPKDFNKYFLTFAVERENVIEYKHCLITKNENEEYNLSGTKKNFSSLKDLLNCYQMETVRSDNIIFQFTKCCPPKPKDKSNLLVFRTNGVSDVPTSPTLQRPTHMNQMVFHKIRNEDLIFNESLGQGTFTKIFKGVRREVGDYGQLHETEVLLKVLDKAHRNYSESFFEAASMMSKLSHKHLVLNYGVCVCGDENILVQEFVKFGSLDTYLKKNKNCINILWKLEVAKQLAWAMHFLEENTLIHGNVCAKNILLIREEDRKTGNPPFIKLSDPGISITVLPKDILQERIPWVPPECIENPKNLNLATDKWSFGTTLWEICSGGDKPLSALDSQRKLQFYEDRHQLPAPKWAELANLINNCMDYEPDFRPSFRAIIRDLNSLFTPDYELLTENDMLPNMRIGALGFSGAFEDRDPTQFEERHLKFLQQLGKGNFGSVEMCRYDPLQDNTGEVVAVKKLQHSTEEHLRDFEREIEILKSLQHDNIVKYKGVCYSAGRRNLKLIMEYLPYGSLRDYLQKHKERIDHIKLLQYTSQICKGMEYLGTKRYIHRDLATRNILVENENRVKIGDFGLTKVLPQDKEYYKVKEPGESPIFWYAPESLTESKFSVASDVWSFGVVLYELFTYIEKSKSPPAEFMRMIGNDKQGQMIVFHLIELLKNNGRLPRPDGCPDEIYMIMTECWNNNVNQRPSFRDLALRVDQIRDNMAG
Sequence of UniProt P49137 (whole entry, looked up): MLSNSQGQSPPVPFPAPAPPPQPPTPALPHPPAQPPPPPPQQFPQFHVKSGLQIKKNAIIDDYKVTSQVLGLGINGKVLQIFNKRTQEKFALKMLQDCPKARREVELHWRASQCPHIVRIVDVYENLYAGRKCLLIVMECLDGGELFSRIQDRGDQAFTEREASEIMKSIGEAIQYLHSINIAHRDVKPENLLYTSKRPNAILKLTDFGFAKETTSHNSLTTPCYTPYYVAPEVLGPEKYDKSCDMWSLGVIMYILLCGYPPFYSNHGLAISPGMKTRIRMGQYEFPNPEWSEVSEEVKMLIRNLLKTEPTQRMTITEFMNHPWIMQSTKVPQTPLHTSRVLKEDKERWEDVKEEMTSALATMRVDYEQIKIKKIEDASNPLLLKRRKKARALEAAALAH
Sequence of UniProt Q9BWU1 (whole entry, looked up): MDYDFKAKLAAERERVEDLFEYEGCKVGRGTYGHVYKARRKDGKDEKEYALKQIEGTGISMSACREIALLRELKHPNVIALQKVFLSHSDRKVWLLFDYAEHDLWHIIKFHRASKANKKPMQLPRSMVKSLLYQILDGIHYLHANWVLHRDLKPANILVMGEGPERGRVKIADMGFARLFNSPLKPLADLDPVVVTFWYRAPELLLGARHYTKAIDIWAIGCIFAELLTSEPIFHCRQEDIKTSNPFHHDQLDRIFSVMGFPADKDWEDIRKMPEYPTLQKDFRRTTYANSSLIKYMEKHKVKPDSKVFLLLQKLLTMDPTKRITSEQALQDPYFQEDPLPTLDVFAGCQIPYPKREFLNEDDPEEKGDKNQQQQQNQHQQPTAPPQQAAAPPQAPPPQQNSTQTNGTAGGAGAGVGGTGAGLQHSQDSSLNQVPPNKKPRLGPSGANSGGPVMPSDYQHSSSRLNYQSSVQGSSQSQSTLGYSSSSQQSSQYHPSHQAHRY
Sequence of UniProt Q10QA5 (whole entry, unmodified, looked up): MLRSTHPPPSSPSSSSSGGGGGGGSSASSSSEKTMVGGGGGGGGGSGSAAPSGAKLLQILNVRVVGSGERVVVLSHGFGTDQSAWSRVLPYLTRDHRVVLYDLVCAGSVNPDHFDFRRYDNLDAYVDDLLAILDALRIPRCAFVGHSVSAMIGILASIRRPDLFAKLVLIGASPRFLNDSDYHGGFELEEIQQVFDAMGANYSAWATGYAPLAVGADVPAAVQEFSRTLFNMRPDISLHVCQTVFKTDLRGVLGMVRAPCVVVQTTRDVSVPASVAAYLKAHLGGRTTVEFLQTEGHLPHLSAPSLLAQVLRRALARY
Sequence of UniProt Q15208 (whole entry, looked up): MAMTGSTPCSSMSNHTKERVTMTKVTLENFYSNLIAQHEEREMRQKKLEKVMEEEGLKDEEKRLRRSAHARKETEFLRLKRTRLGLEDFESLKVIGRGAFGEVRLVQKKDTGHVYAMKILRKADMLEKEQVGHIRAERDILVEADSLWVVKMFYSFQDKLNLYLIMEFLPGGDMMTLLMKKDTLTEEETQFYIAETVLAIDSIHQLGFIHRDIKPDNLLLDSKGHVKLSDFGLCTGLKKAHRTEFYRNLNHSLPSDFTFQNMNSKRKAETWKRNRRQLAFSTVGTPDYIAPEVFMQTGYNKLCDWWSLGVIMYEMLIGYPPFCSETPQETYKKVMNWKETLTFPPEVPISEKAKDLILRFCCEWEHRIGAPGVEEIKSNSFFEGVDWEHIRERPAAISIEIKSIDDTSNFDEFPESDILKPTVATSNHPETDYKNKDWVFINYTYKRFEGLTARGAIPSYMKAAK
Sequence of UniProt Q00535 (whole entry, looked up): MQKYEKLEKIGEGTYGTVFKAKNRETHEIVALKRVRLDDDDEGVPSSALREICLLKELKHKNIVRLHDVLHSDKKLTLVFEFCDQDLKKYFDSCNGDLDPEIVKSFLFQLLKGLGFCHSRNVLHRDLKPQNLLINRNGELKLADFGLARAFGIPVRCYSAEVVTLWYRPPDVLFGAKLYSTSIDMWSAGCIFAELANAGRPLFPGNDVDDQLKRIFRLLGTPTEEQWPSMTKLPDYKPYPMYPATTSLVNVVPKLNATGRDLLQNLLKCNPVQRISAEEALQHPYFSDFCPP

COCC(CNC(C)=O)c1cccc2ccc(OC)cc12 (stereo not shown)  Emax (MTNR1A; cAMP, agonist, TR-FRET; CHO-K1; 20 min): 67%
CCCCC(=O)Nc1ccc(-c2ccc3ncn(CCC)c(=O)c3c2)cn1  remaining binding (Serine/threonine-protein kinase 38 (STK38, Homo sapiens, UniProt Q15208); binding, competition with immobilised ligand; 0.5 µM): 100%
CC[C@H](C)[C@H](NC(=O)[C@H](CCC(N)=O)NC(=O)[C@@H](NC(=O)[C@H](CCSC)NC(=O)[C@H](CCCCN)NC(=O)[C@H](CO)NC(=O)[C@@H](NC(=O)[C@H](CCSC)NC(=O)[C@H](CC(C)C)NC(=O)[C@H](CC(N)=O)NC(=O)[C@@H](NC(=O)[C@@H](NC(=O)[C@H](CO)NC(=O)[C@H](CC(C)C)NC(=O)[C@H](C)NC(=O)[C@H](CCCNC(=N)N)NC(=O)[C@H](CCC(=O)O)NC(=O)[C@H](Cc1ccc(O)cc1)NC(=O)[C@H](Cc1ccccc1)NC(=O)[C@H](C)NC(=O)[C@H](CC(N)=O)NC(=O)[C@@H](N)CCCCN)[C@@H](C)CC)[C@@H](C)CC)[C@@H](C)O)C(C)C)C(=O)N[C@@H](CC(N)=O)C(=O)N[C@H](C(=O)O)C(C)C  remaining activity (Cyclin-dependent kinase 5, with p35 (CDK5, Homo sapiens, UniProt Q00535); enzyme activity, inhibitor, radiometric; 100 µM, 20 min): 43%
COc1cc(CNC(=O)N2CCCC2)cc(Br)c1OC  inhibition (Replicase polyprotein 1ab, papain-like protease (rep, Porcine epidemic diarrhea virus, UniProt P0C6Y4); enzyme activity, inhibitor, FRET; 10 µM): 2.72%
C=CC(=O)N1CCC(COCC(=O)N2CCN(c3nc(-c4cnc(N)nc4C(F)F)nc(N4CCOC[C@@H]4C)n3)CC2)CC1  remaining binding (AP2-associated protein kinase 1 (AAK1, Homo sapiens, UniProt Q2M2I8); binding, competition with immobilised ligand; 1 µM): 100%
COc1cc2c(CCNC(C)=O)c[nH]c2cc1I  Emax (Melatonin receptor type 1B (MTNR1B, Homo sapiens, UniProt P49286); cAMP, agonist, TR-FRET; CHO-K1; 20 min): 98%
FC(F)(F)Oc1cccc(-c2cnc3ccc(-c4ccncc4)nn23)c1  activity vs control (Rho-associated protein kinase 2 (Rock2, Rattus norvegicus, UniProt Q62868); enzyme activity, inhibitor, radiometric; 1 µM): 102%
CN(c1nccc(-c2cnn3ncccc23)n1)C1CC1  remaining binding (Cyclin-dependent kinase 19 (CDK19, Homo sapiens, UniProt Q9BWU1); binding; 1 µM): 100%
COc1cc(-c2cncc3c2CN(C)Cc2cc(N4CCNCC4)ccc2-3)cc(OC)c1OC  remaining activity (Serine/threonine-protein kinase 3 (STK3, Homo sapiens, UniProt Q13188); enzyme activity, inhibitor; 1 µM): 93%
CCC(=O)NC1Cc2ccccc2C(c2ccccc2)C1 (stereo not shown)  Emax (MTNR1A; cAMP, agonist, TR-FRET; CHO-K1; 20 min): 48%
Nc1ncnc2occ(-c3ccc(NC(=O)Nc4cc(C(F)(F)F)ccc4F)cc3)c12  remaining signal (Receptor-type tyrosine-protein kinase FLT3 (FLT3, Homo sapiens, UniProt P36888, D835H); cell-free assay, inhibitor; 20 µM): 0.55%
Cc1cc([C@@H](C)Nc2ccccc2C(=O)O)c2nc(N3CCC(F)(F)CC3)c(C#N)c(=O)n2c1  remaining binding (Tyrosine-protein kinase JAK2, JH1 (JAK2, Homo sapiens, UniProt O60674); binding, competition with immobilised ligand; 1 µM): 100%
CNc1ncc2c(/C=C/C(=O)N3CCC(OC)CC3)nn(Cc3cccc(C(F)(F)F)c3)c2n1  remaining activity (MAP kinase-activated protein kinase 2 (MAPKAPK2, Homo sapiens, UniProt P49137); enzyme activity, inhibitor, radiometric; 1 µM): 112%
CC(=O)/C=C/C=C(C)/C=C/C1=C(C)CC(O)CC1(C)C (stereo in doubt)  ΔTm (D14 (Oryza sativa, UniProt Q10QA5); thermal stability, DSF; 100 µM): 6.86 °C
C1=C/COCc2cc(ccc2OCCN2CCCC2)Nc2nccc(n2)-c2cccc(c2)COC/1  remaining binding (Discoidin domain-containing receptor 2 (DDR2, Homo sapiens, UniProt Q16832); binding; 0.1 µM): 56%
C#CCO[C@@H]1CC[C@H](Cc2ccccc2)N(C(=O)n2ncc(C(O)(c3ccc(F)cc3)c3ccc(F)cc3)n2)C1  kinact (Diacylglycerol lipase-alpha (Mus musculus, UniProt Q6WQJ1); enzyme activity, inhibitor): 0.000967 s⁻¹

For quick reference, copied from above:
CNc1ncc2c(/C=C/C(=O)N3CCC(OC)CC3)nn(Cc3cccc(C(F)(F)F)c3)c2n1  remaining activity (MAP kinase-activated protein kinase 2 (MAPKAPK2, Homo sapiens, UniProt P49137); enzyme activity, inhibitor, radiometric; 1 µM): 112%
Nc1ncnc2occ(-c3ccc(NC(=O)Nc4cc(C(F)(F)F)ccc4F)cc3)c12  remaining signal (Receptor-type tyrosine-protein kinase FLT3 (FLT3, Homo sapiens, UniProt P36888, D835H); cell-free assay, inhibitor; 20 µM): 0.55%
